Experimental data of several laboratories.
Every numbered part comes from another study and shows a few of its results, in no order. Changes are numbered by the printed parent chain.

Block 1 — technique: protein binding microarray; molecule type: double-stranded DNA, one strand shown; matrix: in vitro; tested at: not given; reference: not given; direction: higher = stronger binding
Target: Histone acetyltransferase KAT6A, winged helix 1, GST fusion (KAT6A, Homo sapiens, UniProt Q92794, residues 1-85)
Setting: 8-mer, flanks averaged, mean of 2 arrays, mostly near background
Construct (chain): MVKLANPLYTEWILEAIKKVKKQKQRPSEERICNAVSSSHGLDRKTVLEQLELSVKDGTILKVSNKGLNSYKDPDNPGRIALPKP
Sequence | E-score
CATTCGGC | 0.176
AGATCACG | 0.0765
CGAGCGAG | 0.157
CGGGGCCC | 0.286
CACCACAG | -0.321
ATCAGGCC | -0.0552
CATGGAAC | -0.122
CCTTCACG | 0.15
ATGTTGTG | -0.102
AATGGCGG | 0.143
CTTTGCTA | -0.173
AGGAGACG | 0.0761

Block 2 — target: CCNA1, cyclin fold, Cln2 fusion (human); technique: yeast growth competition, sequencing; matrix: yeast; setting: weak parent motif; reference: not given; direction: higher = stronger binding
Starting sequence: PKN2 docking peptide (human); VSAVRKLDFSDTM; partner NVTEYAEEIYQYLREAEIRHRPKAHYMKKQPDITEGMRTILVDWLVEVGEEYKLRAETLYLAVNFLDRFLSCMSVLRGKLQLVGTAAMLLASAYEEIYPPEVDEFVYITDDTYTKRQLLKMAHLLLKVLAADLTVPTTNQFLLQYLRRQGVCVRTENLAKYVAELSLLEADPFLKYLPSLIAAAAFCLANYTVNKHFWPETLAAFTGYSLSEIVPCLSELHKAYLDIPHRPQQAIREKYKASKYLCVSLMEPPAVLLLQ
Variant | normalised enrichment score
VSAVRKLPFSDTM [D8P] | 0.209
VSAVRKWDFSDTM [L7W] | -0.0067
VSWVRKLDFSDTM [A3W] | 0.174
VSAVRKLDFSDQM [T12Q] | 0.96
VSAVRRLDFSDTM [K6R] | 1.33
VSAVRKLIFSDTM [D8I] | 0.105
VSAVRKLDFSATM [D11A] | 1.23
VSAVRMLDFSDTM [K6M] | 0.895
VSAVRKLDFSDAM [T12A] | 0.999
VSAVRQLDFSDTM [K6Q] | 0.648

Block 3 — technique: RNA Bind-n-Seq; molecule type: RNA; matrix: in vitro; tested at: 365 nM; reference: no-protein control; direction: higher = stronger binding
Target: RNA binding protein fox-1 homolog 2, RRM domain, GST-SBP tag (RBFOX2, Homo sapiens, UniProt O43251-10, residues 100-194)
Setting: natural RNA segment, single round, ends assumed
Shared flanks, not repeated: GGGAGUUCUACAGUCCGACGAUC … UGGAAUUCUCGGGUGCCAA
Target sequence (chain): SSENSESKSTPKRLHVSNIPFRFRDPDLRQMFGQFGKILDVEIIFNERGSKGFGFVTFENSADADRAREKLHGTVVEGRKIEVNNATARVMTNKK
Sequence | RBNS enrichment (R)
UUGCCUCCUUGGCUUCUACUAGAGCAAAAUCUGCUGCCAAGUCAGCCUGGUUUCUGGUUGUGUUCUUCACUCAGGCCUCCAUGGGCAACAAUGGUUUCAGGAGAACUGUU | 0.239
CUGUGACAAUCAGCAAAGCCUCGCCUGGGCCCUCAUCUGGGAUGAUGGGGGGAACGGACAGAUAUUCCCAUCUUGGAGGUCAUCCAUUAGGAAUUAAAUUCUCCAGCUUC | 0.264
UUAUAAUCUGAUGGAGAGAGACACCCGUCUUGGAACUGACAUAAAUUUCUGGGGUUUGAGAAAUGGGCGGGAUUUCACUGGUAGCUUCUGGAAGGUAAGAGUUGUCCAGG | 0.943
UCUCCGUGUCUCAGUUAUGGUCUGCUCUCUCUAUGCCUGGAGCUACUGAUCCAAACACAAGACGGUCAGAGGAGCCCUGGCAUCCUUCACUCUUAUAGGCCUACAUGCAG | 0.425
UAUGUGCUAGCUUGUAUAUAUAUAUAUAUAUUUAAAAAAAAUCUACCUGCUUCUGACUUUAAGCAAAAGGAAAGAAAACUACCUUUUUAUAUAAUGCACAACUGUUGAUG | 1.97
CCUGUAUAUAUUGCUUUAAUAGAGCCACGAUUUGUAUAUGUGCUGUUCAUUAGAGCAAAUUCAGGGGAAUUUUUGUUCUUUUUUUUUUUAUUUGGGGGCACUAAGUUUAG | 0.892
GAUCAAAGAUUAUUUUCAAAAAUGAGAUAUCAAUUUGGUAUCAGUAAAAAGUGUCUUUUCUCUUAGUAUAUAAAUAAAUAAAAUGCAAAUUAAGAGUGUAAGCAGUUGUG | 0.448
GCAAAGAAUUCAUAGCAGUUAAUUCCCCUUUUUGACCCUUUUGAGAUGGAACUUUCAUAAAGUUUCUUGGCAGUAGUUUAUUUUGCUUCAAAUAAACUUAUUUGAAAAGU | 0.663
GAAGAACCUUCUGGGCCUAGAGGCAGACGCUGCAUUGCACUAUUCCAGUGUCUUCCACGGAGCCUCUGGGGCUCCUCCCUCACCUGGCAGCCCCUCCAGCUGCUGGUGAU | 0.648
GUUCACCCGAGAUGCCCAGGGGUACCGCCUCCAGCCUCAGGCCUGGAGCAUUCCAUCAAAGUUGGAAUUAGGGGAAGGAGGCCCACUGUCCUCCCCGGUCUCCUGAGAGU | 0.406
GCUCUAGAAGAGUUGAAACAUAGAUCAUUGAAGGUUAAAAAUCCUCUUCCAAAGCAGCAAGUCAAUCAAUACAAUAAUGAUAUUUGGGGAGGGGUGGGAGCCCUUAAGAA | 0.754
ACCUAAUGGAGGCUGAGAUCUUGGAUGCAGACUCGGACUUUGAGCCUGCAGGGCAGGUCCUAGGAUGGGAAAGACAAAUGUACACCUUUCUAUGGCUCUUCCUGAGAGCA | 9.19

Further values, each from its own experiment
Substance | target | assay | test system | conditions | how to read | quantity | result
PhoQ, residues 284 288 289 292 302 303 ASHLAV | PhoP, residues 12 14 15 18 19 NMSFL (Escherichia coli, UniProt P23836) | Sort-seq, refers to: YFP reporter | E. coli | PhoQ-PhoP variant library, added: 10 µM Mg2+ | reference: high Mg2+ state, higher = stronger signaling | fold induction | 13.3

Some of these lines once more (block 2):
Variant | normalised enrichment score
VSAVRKLDFSDQM [T12Q] | 0.96
VSAVRRLDFSDTM [K6R] | 1.33
VSAVRKLIFSDTM [D8I] | 0.105
VSAVRKLDFSATM [D11A] | 1.23
VSAVRMLDFSDTM [K6M] | 0.895
